Assay results gathered from unrelated publications.
Parts stem from different laboratories: compare values within a part only. Changes are numbered by the printed parent chain.

Block 1 — technique: universal PBM; form: double-stranded DNA, one strand shown; matrix: in vitro; concentration: not given; reading: higher = stronger binding
Target: Sal-like protein 4, full length isoform B (SALL4, Homo sapiens, UniProt Q9UJQ4-2, residues 1-616)
Setting: 8-mer, flanks averaged, mean of replicates
Construct (chain): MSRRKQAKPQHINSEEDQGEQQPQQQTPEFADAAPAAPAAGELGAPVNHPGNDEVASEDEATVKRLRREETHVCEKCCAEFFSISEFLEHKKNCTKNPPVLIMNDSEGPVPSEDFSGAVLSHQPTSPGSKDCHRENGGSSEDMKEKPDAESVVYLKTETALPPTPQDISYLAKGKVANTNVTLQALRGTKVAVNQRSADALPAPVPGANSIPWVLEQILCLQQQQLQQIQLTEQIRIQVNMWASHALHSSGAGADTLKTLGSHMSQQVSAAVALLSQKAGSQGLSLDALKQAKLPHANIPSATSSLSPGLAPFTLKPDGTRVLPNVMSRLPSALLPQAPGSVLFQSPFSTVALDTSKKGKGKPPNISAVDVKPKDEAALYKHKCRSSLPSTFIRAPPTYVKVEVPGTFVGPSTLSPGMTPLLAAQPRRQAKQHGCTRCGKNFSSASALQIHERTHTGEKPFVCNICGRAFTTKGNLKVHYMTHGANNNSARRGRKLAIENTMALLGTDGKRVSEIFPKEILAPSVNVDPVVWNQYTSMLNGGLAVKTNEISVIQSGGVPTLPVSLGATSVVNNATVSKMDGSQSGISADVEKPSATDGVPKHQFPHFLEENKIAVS
Strand | E-score
ACGTTCAT | 0.149
TATCTAGA | 0.155
CACGTTCG | -0.0779
TCCACGCA | -0.0584
CGAGCCGC | -0.152
ACGAGAAA | 0.092
ACAATGTC | 0.0619
ATTACGCA | 0.187
CAGACGGG | -0.202
ACCCGGCT | -0.311
ATGACCAG | 0.00395
GTTTACGA | 0.0113
GTGGGTCA | -0.115
TGCCAGAA | -0.0384
CTGGTAAA | 0.0913
AAACCTAA | 0.0575
AGCCGCCA | -0.307
ACCTGACC | -0.151
CGTAGACA | -0.0406
AAGTCAGT | 0.00848
AGGTGGTA | 0.052
CAAATGGG | -0.045

Block 2 — technique: RNA Bind-n-Seq; form: RNA; matrix: in vitro; concentration: 20 nM; setting: 6-mer, flanks averaged, single round; added: 150 mM LiCl; reference: input library; reading: higher = stronger binding
Target: TAR DNA-binding protein 43, full length, His tag (TARDBP, Homo sapiens, UniProt Q13148, residues 1-414)
Strand | 6-mer enrichment (R)
CUGUGU | 1.28
AGGGAG | 1.18
AAUAAG | 1.05
GGUAUU | 1.03
UUCGCC | 0.91
UCCCUU | 1.18
UUUGGA | 1.08
GUUAGU | 1.16
UAUACU | 0.895
CCGCCA | 0.962
GGUGCA | 1.09
AGAGAG | 1.1
AUCUAG | 0.82
GCGGAA | 0.978
AACCUC | 0.842
UGACAA | 0.855

Block 3 — technique: protein binding microarray; form: double-stranded DNA, one strand shown; matrix: in vitro; concentration: not given; reference: not given; reading: higher = stronger binding
Target: Histone acetyltransferase KAT6A, both winged helices, GST fusion (KAT6A, Homo sapiens, UniProt Q92794, residues 1-181)
Setting: 8-mer, flanks averaged, mean of 2 arrays, mostly near background
Target sequence (chain): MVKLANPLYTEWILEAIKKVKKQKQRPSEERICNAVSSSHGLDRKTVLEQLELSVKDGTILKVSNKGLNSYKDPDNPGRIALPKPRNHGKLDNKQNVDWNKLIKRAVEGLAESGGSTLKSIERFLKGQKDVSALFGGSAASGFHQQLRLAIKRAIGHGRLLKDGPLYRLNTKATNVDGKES
Strand | E-score
ATCGCGGC | 0.332
CGGGTGGC | 0.128
ATTAGGTA | -0.0998
TCATATGA | -0.112
ACAACGAG | -0.159
ACTTATCA | -0.136
ATGTGGTC | -0.249
ATACACGA | 7e-05
CATTGACA | -0.00419
AAACCGCG | 0.328
GACATTGC | 0.00419
AGCCCCGG | 0.0516
TCTTAAAA | -0.187
AACGCAGA | 0.0952
ACGACGCA | 0.0219
CCTCACTC | -0.205

Block 4 — technique: DHFR PCA, deep sequencing; matrix: yeast; added: (+)-ABA 0.39 µM; reference: wild-type fitted maximum; reading: higher = stronger binding
Target: ABI1, truncated, D143A, DHFR fusion (Arabidopsis thaliana)
Setting: methotrexate growth selection, single substitutions
Starting sequence: PYL1, truncated, DHFR fusion (Arabidopsis thaliana); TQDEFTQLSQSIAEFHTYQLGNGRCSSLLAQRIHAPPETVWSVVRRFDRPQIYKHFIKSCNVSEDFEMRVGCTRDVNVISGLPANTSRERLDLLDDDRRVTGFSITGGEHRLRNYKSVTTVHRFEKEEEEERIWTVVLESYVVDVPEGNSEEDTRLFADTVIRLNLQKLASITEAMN; partner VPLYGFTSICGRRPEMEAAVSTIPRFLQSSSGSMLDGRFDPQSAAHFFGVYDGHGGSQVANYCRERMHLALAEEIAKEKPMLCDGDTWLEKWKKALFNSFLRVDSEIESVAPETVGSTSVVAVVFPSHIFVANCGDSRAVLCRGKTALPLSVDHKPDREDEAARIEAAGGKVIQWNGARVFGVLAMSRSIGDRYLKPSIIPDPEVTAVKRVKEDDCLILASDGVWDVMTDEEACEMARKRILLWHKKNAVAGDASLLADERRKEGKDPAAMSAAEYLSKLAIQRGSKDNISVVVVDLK
Variant | relative binding score
S117M | 3.6%
F56A | -14.5%
V142N | -19.2%
T17N | 5.28%
M176Q | 22.1%
E129H | 37.9%
P146D | 0.677%
Q31Y | -3.46%
T154R | -16.1%
I133L | 42.5%
T135F | -9.75%
D92M | -6.89%
S11F | 28.4%
L82G | 42.8%
G81T | 33.7%

Block 5 — technique: aptamer microarray, sandwich; form: DNA with 2'F-ANA; matrix: in vitro; concentration: 200 nM; added: Cy3 exosite-II aptamer, 400 nM; reading: higher = stronger binding; strand: GGTTGGTGTGGTTGG
Target: Prothrombin, mature alpha-thrombin (F2, Homo sapiens, UniProt P00734)
Setting: whole 15-mer aptamer, many near background
Modification | mean fluorescence intensity [a.u.]
2'F-ANA at 1 2 3 5 6 7 9 11 | 56.3
2'F-ANA at 4 5 7 9 13 14 | 44.2
2'F-ANA at 1 2 3 4 6 9 13 15 | 112
2'F-ANA at 4 5 8 | 75.4
2'F-ANA at 4 5 7 12 | 173
2'F-ANA at 1 5 7 9 10 11 14 | 46.5
2'F-ANA at 2 3 4 5 7 10 11 | 54.3
2'F-ANA at 2 4 5 6 8 11 14 | 48.4
2'F-ANA at 1 3 6 7 8 11 12 13 14 | 132
2'F-ANA at 1 8 9 13 14 15 | 69.1
2'F-ANA at 1 3 4 5 7 8 14 | 82.2
2'F-ANA at 2 3 4 8 9 10 | 316
2'F-ANA at 1 2 7 9 12 15 | 337
2'F-ANA at 3 5 7 10 13 14 | 85
2'F-ANA at 1 2 3 4 5 7 8 9 14 | 55.5
2'F-ANA at 4 7 9 12 14 15 | 121
2'F-ANA at 3 6 7 11 14 15 | 485
2'F-ANA at 1 2 7 8 12 13 | 392
2'F-ANA at 1 4 5 6 8 12 14 15 | 47.1
2'F-ANA at 1 2 4 5 14 | 48.7
2'F-ANA at 1 5 6 8 11 12 13 | 76.3
2'F-ANA at 2 3 4 6 9 11 13 14 15 | 182
2'F-ANA at 4 6 8 10 12 | 106
2'F-ANA at 3 4 5 8 11 12 13 14 | 58.6
2'F-ANA at 2 3 6 9 10 11 12 13 14 15 | 213

Block 6 — target: CCNF, cyclin fold, Cln2 fusion (human); technique: yeast growth competition, sequencing; matrix: yeast; setting: strong parent motif; reference: not given; reading: higher = stronger binding
Starting sequence: CDKN1A docking peptide (human); SKACRRLFGPVDS
Variant | normalised enrichment score
SKACRRLYGPVDS [F8Y] | 4.03
SKACRRLFAPVDS [G9A] | 7.57
SKACSRLFGPVDS [R5S] | 0.189
SYACRRLFGPVDS [K2Y] | 7.75
SKACRRLFGPVCS [D12C] | 7.06
SKACRRLFQPVDS [G9Q] | 7.39
SKACRRLFGPVVS [D12V] | 7.15
SKACRVLFGPVDS [R6V] | 6.33
SKACRALFGPVDS [R6A] | 5.61
SKACRRPFGPVDS [L7P] | 0.431
SKACRRLFGPFDS [V11F] | 7.63
SKACRRLFRPVDS [G9R] | 5.98
SKACRRLFGPVMS [D12M] | 7.48
SKACRRLFGPTDS [V11T] | 7.8
SKACRRLFGHVDS [P10H] | 6.61
SKACRMLFGPVDS [R6M] | 6.42
SKACRRLFGPLDS [V11L] | 7.65
SKACRSLFGPVDS [R6S] | 6.59
SKARRRLFGPVDS [C4R] | 8.26
SKACRCLFGPVDS [R6C] | 6.71
SKAVRRLFGPVDS [C4V] | 6.99
SKACNRLFGPVDS [R5N] | 0.495
SKTCRRLFGPVDS [A3T] | 8.41

Block 7 — target: CREBL2, bZIP domain (human); technique: DHFR protein complementation; matrix: yeast; reference: wild-type JUN-FOS pair; reading: higher = stronger binding
Setting: single substitutions, most at no-binding floor
Starting sequence: JUN, bZIP domain (human); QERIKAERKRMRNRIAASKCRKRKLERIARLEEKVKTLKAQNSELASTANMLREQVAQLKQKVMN; partner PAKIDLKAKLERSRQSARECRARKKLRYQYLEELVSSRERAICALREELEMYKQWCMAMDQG
Variant | binding fitness
R30Q | -1.55 natural log
K39F | -1.54 natural log
E32F | -1.49 natural log
S47W | -1.48 natural log
S43A | -1.42 natural log
R53C | -1.44 natural log
K34L | -1.22 natural log
K36Q | -1.29 natural log
K39R | -1.37 natural log
E32V | -1.51 natural log
A29P | -1.52 natural log
V56F | -1.49 natural log
Q55N | -1.53 natural log
A29C | -1.51 natural log
E44R | -1.43 natural log
Q41N | -1.3 natural log
L38P | -1.57 natural log
E54S | -1.53 natural log
E33P | -1.54 natural log
A46S | -1.46 natural log

Other studies, line by line
Molecule | target | assay | test system | setting | scale | endpoint | value
PhoQ, residues 284 288 289 292 302 303 AEGLLW | PhoP, residues 12 14 15 18 19 NIMAP (Escherichia coli, UniProt P23836) | Sort-seq, refers to: YFP reporter | E. coli | PhoQ-PhoP variant library, added: 10 µM Mg2+ | reference: high Mg2+ state, higher = stronger signaling | fold induction | 0.764

Some of these lines once more (block 2):
Strand | 6-mer enrichment (R)
CUGUGU | 1.28
AGGGAG | 1.18
AAUAAG | 1.05
GGUAUU | 1.03
UUCGCC | 0.91
UCCCUU | 1.18
UUUGGA | 1.08
GUUAGU | 1.16
UAUACU | 0.895
CCGCCA | 0.962
GGUGCA | 1.09
AGAGAG | 1.1
AUCUAG | 0.82
GCGGAA | 0.978
AACCUC | 0.842
UGACAA | 0.855
